Published values from different studies.
Compare with care: the assays were run in different laboratories. ± marks the error that the study gave.

NCCCCC(N)C(=O)NC[C@@H]1O[C@H](O[C@H]2[C@@H](O)[C@H](O[C@@H]3[C@@H](O)[C@H](NC(=O)C(N)CCCCN)C[C@H](NC(=O)C(N)CCCCN)[C@H]3O[C@H]3O[C@H](CNC(=O)C(N)CCCCN)[C@@H](O)[C@H](O)[C@H]3NC(=O)C(N)CCCCN)O[C@@H]2CO)[C@H](NC(=O)C(N)CCCCN)[C@@H](O)[C@@H]1O (some centres unmarked)  IC50 (RNase P holoenzyme Escherichia coli; 37 °C, together with: 10 mM Mg2+): ~3000 nM
Cc1cc(N)c2cc(NC(=O)C(=O)Nc3ccc4nc(C)cc(N)c4c3)ccc2n1  IC50 (factor Xa; anticoagulant neutralization, chromogenic; together with: fondaparinux 0.2 IU/mL, human antithrombin III): 11900 ± 200 nM
CC(C)c1cnc(-c2cc(Cl)ccc2F)cc1Nc1ccncc1C(=O)NC(CO)CO  IC50 (TGF-β receptor type 1 (mouse); SMAD2 Ser465/467 phosphorylation, inhibitor; 4T1; unbound drug, together with: TGF-β): 25 ± 4.32 nM
CC(C)c1ccc(C(=O)Nc2ccc(CN3CCN(C)CC3)c(C(F)(F)F)c2)cc1C#Cc1cnc2cccnn12  IC50 (RIPK2; NF-kB reporter gene, inhibitor; HEK-Blue NOD2 NF-kB-SEAP; 8 h, together with: 1 µg/mL L18-MDP): 472 nM
COc1cc(CCC(C)=O)ccc1O  IC50 (mAb 2-LD2; antibody binding, indirect competitive ELISA; together with: coating antigen hapten 2-OVA): > 4000 ng/mL
Cc1cc(N)c2cc(NC(=O)COCC(=O)Nc3ccc4nc(C)cc(N)c4c3)ccc2n1  IC50 (factor Xa; anticoagulant neutralization, chromogenic; together with: fondaparinux 0.2 IU/mL, human antithrombin III): 39500 ± 1600 nM
CCCCC/C=C/C(=O)CCc1ccc(O)c(OC)c1  IC50 (mAb 2-LD2; antibody binding, indirect competitive ELISA; together with: coating antigen hapten 4-OVA): 2.38 ng/mL
O=C(CCCC(=NO)n1c2ccccc2c2ccccc21)NO  IC50 (histone deacetylase, mouse; inhibitor; GL261 cell nuclear extract): 1000 nM
CC(C)=CCC/C(C)=C/Cc1c(CCC(=O)c2ccc(O)cc2O)ccc(O)c1O  IC50 (mitochondrial complex I-III (bovine heart); NADH-cytochrome c reductase, inhibitor): 13600 ± 2190 nM
O=C(CCc1ccc(CNC(C(=O)OC2CCCC2)C2CCCCC2)cn1)NO (centres unmarked)  IC50 (HDAC from HeLa nuclear extract; enzyme activity): 55 nM
C=CC(=O)N1[C@H](c2ccc3c(c2)OCO3)c2[nH]c3ccccc3c2C[C@@H]1C(=O)N1CCN2CCOC[C@@H]2C1  IC50 (human NanoLuc-cyclin E1 N112C; probe labelling, BRET-ABPP; HEK293T cell lysate; 2 h pre-treatment, target engagement, together with: probe YZ-01-A 10 µM 90 min): > 20000 nM
O=C(CCCCCc1ccc2c(c1)c1ccccc1n2Cc1ccccc1)NO  IC50 (histone deacetylase, mouse; inhibitor; GL261 cell nuclear extract): 800 nM
O=C1/C(=C/c2ccc3c(c2)OCCO3)SC(=S)N1[C@@H]1O[C@H](CO)[C@@H](O)[C@H](O)[C@H]1O  IC50 (DNA; DNA intercalation, methyl green displacement): 18200 ± 310 nM
Cc1cc(N)c2cc(NC(=O)CCC(=O)Nc3ccc4nc(C)cc(N)c4c3)ccc2n1  IC50 (factor Xa; anticoagulant neutralization, chromogenic; together with: enoxaparin 0.2 IU/mL, human antithrombin III): 13700 ± 2700 nM

Excerpt of the above:
NCCCCC(N)C(=O)NC[C@@H]1O[C@H](O[C@H]2[C@@H](O)[C@H](O[C@@H]3[C@@H](O)[C@H](NC(=O)C(N)CCCCN)C[C@H](NC(=O)C(N)CCCCN)[C@H]3O[C@H]3O[C@H](CNC(=O)C(N)CCCCN)[C@@H](O)[C@H](O)[C@H]3NC(=O)C(N)CCCCN)O[C@@H]2CO)[C@H](NC(=O)C(N)CCCCN)[C@@H](O)[C@@H]1O (some centres unmarked)  IC50 (RNase P holoenzyme Escherichia coli; 37 °C, together with: 10 mM Mg2+): ~3000 nM
